Measured values of several laboratories.
Every numbered part comes from another study and shows a few of its results, in no order. Positions count from the first letter of the parent shown.

Study 1
Molecule: PhoQ, residues 284 288 289 292 302 303 SSCCRF
Method: Sort-seq
Measured: YFP reporter
Matrix: E. coli
Setting: PhoQ-PhoP variant library
Together with: 10 µM Mg2+
Reference: high Mg2+ state
Direction: higher = stronger signaling
| target | fold induction |
| --- | --- |
| PhoP, residues 12 14 15 18 19 HHYTI (Escherichia coli, UniProt P23836) | 3.26 |
| PhoP, residues 12 14 15 18 19 SFCSL (Escherichia coli, UniProt P23836) | 12.1 |
| PhoP, residues 12 14 15 18 19 AYFRS (Escherichia coli, UniProt P23836) | 8.61 |

Study 2
Target: Max-binding protein MNT, bHLH-zipper, MAX partner unstated (MNT, Homo sapiens, UniProt Q99583, residues 220-300)
Method: protein-binding microarray
Form: double-stranded DNA, one strand shown
Matrix: in vitro
Concentration: not given
Setting: k-mer, scored over probes, only values ≥0.25
Direction: higher = stronger binding
Construct (chain): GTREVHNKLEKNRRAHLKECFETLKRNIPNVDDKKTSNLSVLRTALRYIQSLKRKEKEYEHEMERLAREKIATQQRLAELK
| Sequence | E-score |
| --- | --- |
| CTCGTGGA | 0.42 |
| ACGCTGCA | 0.298 |
| AATGCACG | 0.36 |
| CCATGCCC | 0.287 |
| ATCGCATG | 0.347 |
| TAGCACGA | 0.277 |
| ACCCACGG | 0.258 |
| CTCATGGC | 0.323 |
| AAGTCACG | 0.326 |
| ATGGTCAC | 0.316 |
| ATGTGATA | 0.299 |
| GCGCCACC | 0.255 |
| CGTGCAAA | 0.285 |
| ACGCGGAC | 0.328 |
| ACGTGCAA | 0.431 |

Study 3
Target: CREB3, bZIP domain (human)
Method: DHFR protein complementation
Matrix: yeast
Setting: single substitutions, most at no-binding floor
Reference: wild-type JUN-FOS pair
Direction: higher = stronger binding
Starting sequence: JUN, bZIP domain (human); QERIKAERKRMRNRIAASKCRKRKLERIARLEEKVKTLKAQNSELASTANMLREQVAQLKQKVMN; partner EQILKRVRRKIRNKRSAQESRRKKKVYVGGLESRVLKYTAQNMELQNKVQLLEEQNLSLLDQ
| Variant | binding fitness [natural log] |
| --- | --- |
| L31I | -1.37 |
| K39T | -1.25 |
| L38R | -1.5 |
| L59P | -1.53 |
| V56L | -1.45 |
| A29E | -1.45 |
| E44W | -1.41 |
| E44F | -1.38 |
| A57W | -1.42 |
| L52R | -1.46 |
| L38D | -1.55 |
| A57T | -1.4 |
| T48N | -1.6 |
| E54P | -1.48 |
| E33G | -1.43 |
| A29P | -1.47 |
| I28Q | -1.25 |
| E54R | -1.31 |
| M51Y | -1.42 |
| A29C | -1.4 |
| M51A | -1.36 |
| T48E | -1.38 |
| S43T | -1.4 |
| K34W | -1.49 |
| E54H | -1.46 |

Study 4
Target: CCNE1, cyclin fold, Cln2 fusion (human)
Method: yeast growth competition, sequencing
Matrix: yeast
Setting: weak parent motif
Reference: not given
Direction: higher = stronger binding
Starting sequence: MICAL3 docking peptide (human); LQLRRQLSFSEDS
| Variant | normalised enrichment score |
| --- | --- |
| LQLRRQLSFCEDS [S10C] | 0.854 |
| LQLRRQLDFSEDS [S8D] | 0.911 |
| LQLRRQLSFSEPS [D12P] | 0.979 |
| LQERRQLSFSEDS [L3E] | 0.177 |
| LQLRRQLSFSEVS [D12V] | 1.61 |
| LQLRVQLSFSEDS [R5V] | 0.176 |
| LILRRQLSFSEDS [Q2I] | 0.926 |
| LQLSRQLSFSEDS [R4S] | 0.33 |
| LQLRRQLSFSWDS [E11W] | 0.592 |
| LQPRRQLSFSEDS [L3P] | 3.39 |
| LQLRRQRSFSEDS [L7R] | 0.0117 |
| LQLRRQLSFSVDS [E11V] | 0.456 |
| LQLRDQLSFSEDS [R5D] | 0.00118 |
| LQLRRKLSFSEDS [Q6K] | 2.54 |
| LQLRRQLSFIEDS [S10I] | 0.0124 |
| LQLRRQLSFSFDS [E11F] | 0.555 |
| LQLRRQLSSSEDS [F9S] | -0.534 |
| LQLRRQLSFSMDS [E11M] | 0.784 |
| LQLRRQLSQSEDS [F9Q] | 0.0509 |
| LQLRRQLSFSEQS [D12Q] | 0.743 |
| LQMRRQLSFSEDS [L3M] | 1.57 |
| LQLRRLLSFSEDS [Q6L] | 0.599 |
| LGLRRQLSFSEDS [Q2G] | 0.892 |
| LQLRRQLSFSPDS [E11P] | 0.495 |
| LQLRKQLSFSEDS [R5K] | 0.096 |

Study 5
Target: PABPC1L2, full length, GST fusion (mouse, UniProt A0ABA7IW68)
Method: RNAcompete
Form: RNA
Matrix: in vitro
Concentration: 20 nM
Setting: 7-mer, probes averaged, single round
Reference: mean of 7-mers
Direction: higher = stronger binding
Residues (chain): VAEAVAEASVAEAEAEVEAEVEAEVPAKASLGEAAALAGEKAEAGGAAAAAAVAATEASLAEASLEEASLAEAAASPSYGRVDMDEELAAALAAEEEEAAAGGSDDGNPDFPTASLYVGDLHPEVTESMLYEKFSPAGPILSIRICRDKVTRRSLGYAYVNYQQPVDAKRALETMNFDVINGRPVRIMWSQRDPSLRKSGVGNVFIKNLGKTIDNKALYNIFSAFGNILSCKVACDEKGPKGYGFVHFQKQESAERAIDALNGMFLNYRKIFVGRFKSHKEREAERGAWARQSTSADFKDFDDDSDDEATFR
| Sequence | 7-mer Z-score |
| --- | --- |
| CAUUAUG | -0.0718 |
| CGUGUGC | -0.182 |
| CUCGGCU | -0.362 |
| UAUAAAG | 1.95 |
| GAAGUUG | -0.112 |
| AGCUUAU | -0.248 |
| AUUAUCU | -0.115 |
| GUAACUG | -0.166 |
| CGUGCUG | -0.226 |
| ACCCGGU | -0.188 |
| GAUAGAG | -0.0953 |
| AACUUUG | -0.139 |
| UACCACC | -0.244 |
| UAGUAGA | 0.00798 |
| CCACAAC | -0.258 |
| GUUAAUG | -0.289 |
| GGAAGGU | 0.000733 |
| GCCGCUA | -0.204 |
| CUUGGGG | 0.075 |
| UACUAAC | -0.141 |
| GGCCGCC | -0.36 |

Study 6
Target: ABI1, truncated, D143A, DHFR fusion (Arabidopsis thaliana)
Method: DHFR PCA, deep sequencing
Matrix: yeast
Setting: methotrexate growth selection, single substitutions
Together with: (+)-ABA 200 µM
Reference: wild-type fitted maximum
Direction: higher = stronger binding
Starting sequence: PYL1, truncated, DHFR fusion (Arabidopsis thaliana); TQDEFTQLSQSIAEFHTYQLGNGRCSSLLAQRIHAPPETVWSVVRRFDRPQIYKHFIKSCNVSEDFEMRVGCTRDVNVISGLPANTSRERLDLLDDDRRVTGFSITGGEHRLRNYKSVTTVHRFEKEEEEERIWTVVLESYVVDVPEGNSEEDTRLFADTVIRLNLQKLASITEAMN
| Variant | relative binding score [%] |
| --- | --- |
| V137H | -7.25 |
| E38P | 73.8 |
| E151Q | 97.4 |
| T119E | -1.46 |
| V118W | 5.36 |
| E174Y | 69.8 |
| L93Q | 102 |
| V62S | 74.2 |
| L93R | 101 |
| L169S | 1.08 |
| L138G | -10.3 |
| Q51K | 51.8 |
| V121C | 83.3 |
| A158Q | 16.1 |

Study 7
Target: Histone acetyltransferase KAT6A, both winged helices, GST fusion (KAT6A, Homo sapiens, UniProt Q92794, residues 1-181)
Method: protein binding microarray
Form: double-stranded DNA, one strand shown
Matrix: in vitro
Concentration: not given
Setting: 8-mer, flanks averaged, mean of 2 arrays, mostly near background
Reference: not given
Direction: higher = stronger binding
Construct (chain): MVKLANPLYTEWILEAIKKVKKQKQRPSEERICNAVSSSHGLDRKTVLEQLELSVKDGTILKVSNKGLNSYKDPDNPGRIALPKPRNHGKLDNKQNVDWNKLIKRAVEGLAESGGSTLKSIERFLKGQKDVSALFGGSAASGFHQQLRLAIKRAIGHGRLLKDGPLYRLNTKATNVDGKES
| Sequence | E-score |
| --- | --- |
| GGGAACCA | -0.00734 |
| CCCCACGA | -0.208 |
| TACTTCAA | -0.207 |
| TGTCCCAA | -0.1 |
| ACGAACCT | -0.0661 |
| TATTTAAA | 0.0204 |
| TCGGTAGA | 0.166 |
| GTTCACAA | 0.112 |
| CACAGAGC | 0.0114 |
| CTTTCTTA | -0.0344 |
| TATGGGAA | -0.00141 |
| ATGTCCTC | -0.228 |
| TACTAAAA | -0.0169 |
| CCCCGGGC | 0.168 |
| GAGGCAGA | -0.154 |
| CTGCGACC | -0.00269 |
| AAACGTCA | 0.0628 |
| CCAGAGCC | -0.0873 |
| GAACGAGA | 0.0256 |
| AGTCGAAG | -0.0901 |
| AGGCGCAT | 0.158 |
| CACAGGTC | -0.0779 |
| CAAAAGGC | -0.0128 |
| CCCAAAAC | -0.128 |
| GAAATGCC | 0.0533 |
